# Results from different studies.
# Numbered parts are unrelated; each lists some results of a single study. Positions count from the first letter of the parent shown.

# Series 1
# Target: XBP1, bZIP domain (human)
# Technique: DHFR protein complementation
# Medium: yeast
# Setting: single substitutions, most at no-binding floor
# Relative to: wild-type JUN-FOS pair
# Reading: higher = stronger binding
# Starting sequence: JUN, bZIP domain (human); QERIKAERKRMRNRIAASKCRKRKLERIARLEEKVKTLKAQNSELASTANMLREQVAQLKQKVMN; partner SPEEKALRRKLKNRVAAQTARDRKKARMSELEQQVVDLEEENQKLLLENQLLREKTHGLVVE
Change,binding fitness [natural log]
E32F,-1.51
A57W,-1.11
K36Q,-0.754
T48D,-1.33
R30W,-0.255
E33V,-1.34
A40Y,-1.29
A49V,-1

# Series 2
# Target: RNA binding protein fox-1 homolog 2, RRM domain, GST-SBP tag (RBFOX2, Homo sapiens, UniProt O43251-10, residues 100-194)
# Technique: RNA Bind-n-Seq
# Form: RNA
# Medium: in vitro
# Tested at: 365 nM
# Setting: natural RNA segment, single round, ends assumed
# Relative to: no-protein control
# Reading: higher = stronger binding
# Constant ends, left off below: GGGAGUUCUACAGUCCGACGAUC … UGGAAUUCUCGGGUGCCAA
# Target sequence (chain): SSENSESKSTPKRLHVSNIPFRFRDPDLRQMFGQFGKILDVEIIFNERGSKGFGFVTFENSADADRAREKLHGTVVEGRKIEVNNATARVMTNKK
Sequence,RBNS enrichment (R)
CAGAUUCCCUGGAAUCCUUGGUUCAGGAAGGUGCUUGGGAAAGGGGUGUAGCCAGAAUAUUUUUUCCCUGCAAGCCCUAUGGGGUAGUAUCUAAUAAAUAUUCUGAGCAA,0.497
AAAAAAAAAAGAAAAAAAAGAAAAACUGAUGGUGAAACCUACAGGUUUAAGGGCUUAAAUCUCAAACUUUGUUAGGAGUAACAGGAGCGUGCUGAGCGGGCAAGCAAUAA,0.682
GUGUAGUAUACCUGUACAUACUUGUUUCAGGCAGCCUUUCUUUAAUGUUUUCAGUUGGUUUGUAUUCUGUAGCUCAGUAGCUGCUAAUAAAGUUAAAGAUCCUGUGUCCU,0.354
CAGGGUGACUUCAGUGACAUUCCUUCCCUCCUUCACAAGCACGAAAAACUCGUUCGGAGAAAAGACAGCUUCUGCCUUCCCUACCAGGCGGACAGGGUACUCACUGUGCC,0.555
CAGGCUGGAGAAAUGGGAGCCCAGAGAGUGGAGAGUGAUUGGGAGUUACUUGUUCAUUCAAAUCUUGCACCCCCCCCCCCAAGGUUCUCAUUGUUGGAGAGGGUGGGGGA,1.44
GCUGCUGGCACAGCAGUUCUGGCCCUGGACUCUGCCCCGGGGGAUGUGGCCGGCACUGGGCAGCCCCUUGGACUGAGGCAGUUUUGGUGGAUGGGGGACCUCCACUGGUG,0.472
ACUAAUAAAGAACAUUUGGUUGGUCAGAUCCACUUUUAACCUCUGGUGCUGUACAGAAGGCAUUAAACUAAUGUAAACUACAUCCUAUGUUUGGUUCAUUUGAAAUUUUG,0.385
UUUCUCCCAACUUAUCCAAGGAUCUCCAGCUCUAACAAAAUGGUUUAUUUUUAUUUAAAUGUCAAUAGUUGUUUUUUAAAAUCCAAAUCAGAGGUGCAGGCCACCAGUUA,0.389

# Mixed results
# CCNB1: CCNB1, cyclin fold, Cln2 fusion (human)
# HLA class I histocompatibility antigen, A alpha chain allele A*25:01: HLA class I histocompatibility antigen, A alpha chain, allele A*25:01 (Homo sapiens, UniProt P04439)
# P1: viral docking peptide; KKVKRRLFETREL
Molecule,target,test,test system,setting,scale,quantity,result
P1 V3A,CCNB1,"yeast growth competition, sequencing",yeast,weak parent motif,"relative to: not given, higher = stronger binding",normalised enrichment score,0.839
LVTARQKLK,"HLA class I histocompatibility antigen, A alpha chain allele A*25:01",peptide-MHC binding,peptide,concentration not given,,binding,inactive
P1 K1A,CCNB1,"yeast growth competition, sequencing",yeast,weak parent motif,"relative to: not given, higher = stronger binding",normalised enrichment score,0.783
ELRQLAQSL,"HLA class I histocompatibility antigen, A alpha chain allele A*25:01",peptide-MHC binding,peptide,concentration not given,,binding,inactive

# A few entries again (series 2):
Sequence,RBNS enrichment (R)
ACUAAUAAAGAACAUUUGGUUGGUCAGAUCCACUUUUAACCUCUGGUGCUGUACAGAAGGCAUUAAACUAAUGUAAACUACAUCCUAUGUUUGGUUCAUUUGAAAUUUUG,0.385
